Experimental data gathered from unrelated publications.
Compare with care: the assays were run in different laboratories.

For `Cc1ccc(S(=O)(=O)N2C(=O)CSC2c2ccc(O)cc2)cc1` (centres unmarked), the EC50 was over 100 µM (influenza B virus; viral cytopathicity, visual CPE scoring; MDCK, B/Ned/537/05).
`CN1COCN(Cc2cnc(Cl)s2)/C1=N\[N+](=O)[O-]` gave an EC50 of 0.2 mg/kg dry soil (Folsomia candida; reproduction, OECD 232; LUFA 2.2 soil; 28 days).
`Cc1ccc(S(=O)(=O)N2C(=O)CSC2c2ccccc2)cc1` (centres unmarked) gave an EC50 of over 100 µM (influenza B virus; viral cytopathicity, visual CPE scoring; MDCK, B/Ned/537/05).
With `O=C1/C(=N\NC(=S)NN=Cc2ccccc2)c2ccccc2N1Cc1ccccc1` the EC50 was over 20 µM (vesicular stomatitis virus; viral replication; HeLa).
The EC50 of `CC1SC2(CCCC2)N(NC(=O)Cc2csc3nc(-c4ccc(Br)cc4)cn23)C1=O` (centres unmarked) is reported as over 100 µg/mL (vesicular stomatitis virus; viral cytopathic effect; HEL).
The EC50 of `Cc1ccc(S(=O)(=O)N2C(=O)CSC2c2cccc([N+](=O)[O-])c2)cc1` (centres unmarked) is reported as over 100 µM (influenza B virus; viral cytopathicity, visual CPE scoring; MDCK, B/Ned/537/05).
`O=c1[nH]c(=O)n([C@H]2C[C@H](O)[C@@H](CO)O2)cc1/C=C/Br` gave an EC50 of over 250 µM (vesicular stomatitis virus; viral cytopathic effect; HEL).
The EC50 of `NC(=O)c1ncn([C@@H]2O[C@H](CO)[C@@H](O)[C@H]2O)n1` is reported as 4 µM (vesicular stomatitis virus; viral replication; HeLa).
With `O=C(Cc1csc2nc(-c3ccc(Br)cc3)cn12)NN1C(=O)CSC12CCC(c1ccccc1)CC2` (centres unmarked) the EC50 was over 100 µg/mL (vesicular stomatitis virus; viral cytopathic effect; HEL).
For `Cc1ccc2c(c1)/C(=N/NC(=O)N/N=C1\C(=O)Nc3ccc(C)cc31)C(=O)N2`, the EC50 was over 100 µM (vesicular stomatitis virus; viral replication; HeLa).
With `CN[C@@](C)(C[18F])C(=O)O` the tracer uptake was 16 %ID/g (mouse, pancreas; 2 h, tumour-bearing).
The EC50 of `Cc1ccc(S(=O)(=O)N2C(=O)CSC2c2ccccc2Cl)cc1` (centres unmarked) is reported as over 100 µM (influenza B virus; viral cytopathicity, visual CPE scoring; MDCK, B/Ned/537/05).
For `O=C(N/N=C1\C(=O)Nc2ccc(Cl)cc21)N/N=C1\C(=O)Nc2ccc(Cl)cc21`, the EC50 was over 100 µM (vesicular stomatitis virus; viral replication; HeLa).
The EC50 of `Nc1nc(O)c2ncn(COC(CO)CO)c2n1` is reported as over 100 µM (vesicular stomatitis virus; viral cytopathic effect; HEL).
The EC50 of `O=[N+]([O-])NC1=NCCN1Cc1ccc(Cl)nc1` is reported as 0.25 mg/kg dry soil (Folsomia candida; reproduction, OECD 232; LUFA 2.2 soil; 28 days).
`Nc1nc2c(ncn2COCCO)c(=O)[nH]1` has an EC50 of over 250 µM (vesicular stomatitis virus; viral cytopathic effect; HEL).
`Cc1ccc(S(=O)(=O)N2C(=O)CSC2c2cccc(Br)c2)cc1` (centres unmarked) has an EC50 of over 100 µM (influenza B virus; viral cytopathicity, visual CPE scoring; MDCK, B/Ned/537/05).

For quick reference, copied from above:
The EC50 of `CC1SC2(CCCC2)N(NC(=O)Cc2csc3nc(-c4ccc(Br)cc4)cn23)C1=O` (centres unmarked) is reported as over 100 µg/mL (vesicular stomatitis virus; viral cytopathic effect; HEL).
With `O=C1/C(=N\NC(=S)NN=Cc2ccccc2)c2ccccc2N1Cc1ccccc1` the EC50 was over 20 µM (vesicular stomatitis virus; viral replication; HeLa).
